# Measured values from different studies.
# Each line is one published result; not all experiments were run side by side. ± marks the error that the study gave.
Compound,target or system,assay,test system,setting,scale,quantity,result
CO[C@H]1/C=C/O[C@@]2(C)Oc3c(C)c(O)c4c(O)c(c(/C=N/N5CCN(C6CCCC6)CC5)c(O)c4c3C2=O)NC(=O)/C(C)=C\C=C\[C@H](C)[C@H](O)[C@@H](C)[C@@H](O)[C@@H](C)[C@H](OC(C)=O)[C@@H]1C,,,THP-1 caseum surrogate,"5 µM, 4 h, 37 °C",,fraction unbound,0.011 ± 0.001
CCCC(C(=O)c1ccc(O)c(OC)c1)N1CCCC1 (stereo not shown),,,human plasma,"0.75 µg/L, 24 h, Low QC, room temperature",baseline: freshly fortified plasma,stability,14.2 % difference
COc1cccc(C2(O)CCCCC2CN(C)C)c1 (stereo not shown),,visual analog scale,healthy male non-drug abusers,"oral, 50 mg, unit not given",baseline: placebo,take drug again,-2
Cc1ncc2n1-c1ccc(Cl)cc1C(c1ccccc1F)=NC2,,,"human, plasma","oral, 2 mg, geometric mean, added: fenebrutinib 200 mg twice daily",,AUC(0-t),38.3 ng·h/mL
Cc1ncc2n1-c1ccc(Cl)cc1C(c1ccccc1F)=NC2,,,"healthy human, plasma","oral, 2 mg, added: efavirenz 50 mg, no ritlecitinib",,AUC(0-t),19.8 ng·h/mL
CNC(C)Cc1ccc2c(c1)OCO2 (racemic),,,human,"oral, 0.75 mg/kg, mean over session, unit not given",baseline: pre-dose baseline,change in heart rate,8.7
CCCC(C(=O)c1ccc2c(c1)OCO2)N1CCCC1 (stereo not shown),,,human plasma,"750 µg/L, 24 h, High QC, room temperature",baseline: freshly fortified plasma,stability,5.2 % difference
N[C@]1(c2ccccc2Cl)C[C@@H](O)CCC1=O,,,"female CD-1 mice, plasma","intraperitoneal, 5 mg/kg",,dose-normalized Cmax,267 ± 8.5 ng/mL per mg/kg
Cc1ncc(OC[C@@]2(c3cccc(F)c3)C[C@H]2C(=O)Nc2ccc(F)cn2)c(C)n1,,,healthy human,"10 mg, added: fluconazole",,adverse events leading to discontinuation,0%
COc1nc2ccc(Br)cc2cc1[C@@H](c1ccccc1)[C@@](O)(CCN(C)C)c1cccc2ccccc12,,,THP-1 caseum surrogate,"5 µM, 4 h, 37 °C",,fraction unbound,< 0.0001
C[C@@H]1CC[C@@](N)(c2ccccc2Cl)C(=O)[C@@H]1O,,,"male CD-1 mice, plasma","intraperitoneal, 5 mg/kg",,dose-normalized Cmax,565 ± 30.2 ng/mL per mg/kg
CNC(C)Cc1ccc2c(c1)OCO2 (stereo not shown),,,C57BL/6J mouse both sexes,"intraperitoneal, 2 h, as salt",,LD50,119 mg/kg
COc1ccc2c(c1)[C@]13CCCC[C@@H]1[C@H](C2)N(C)CC3,,,"Wistar rat, both sexes, plasma","oral, 5 mg/kg, 2 h after pretreatment, added: single quinidine 2.5 mg/kg",,MRT(0-inf),3.44 ± 1.19 h
C[C@@H]1N=C(c2ccccc2F)c2cc(Br)ccc2NC1=O,,rapid equilibrium dialysis,rat brain homogenate,"5 µM, 4 h, 37 °C",,fraction unbound,0.0141
CCOC(=O)c1cncn1[C@H](C)c1ccccc1,,"serum corticosterone, inhibitor",Sprague-Dawley rat,"intravenous, 15 min, 50% reduction, added: ACTH1-24",,ID50,0.46 ± 0.05 mg/kg
Cc1ncc2n1-c1ccc(Cl)cc1C(c1ccccc1F)=NC2,,,"healthy male, plasma","oral, 7.5 mg, alone, arithmetic mean, day 1",,AUC(0-t),115 ng·h/mL
COc1c(N2CCNC(C)C2)c(F)cc2c(=O)c(C(=O)O)cn(C3CC3)c12 (stereo not shown),,,THP-1 caseum surrogate,"5 µM, 4 h, 37 °C",,fraction unbound,0.188 ± 0.029
Cc1ncc2n1-c1ccc(Cl)cc1C(c1ccccc1F)=NC2,,,"human CYP3A5*3/*7, serum",added: ketoconazole 400 mg,,terminal half-life,19.3 h
N[C@@]1(c2ccccc2Cl)CCC[C@@H](O)C1=O,,,"female CD-1 mice, plasma","intraperitoneal, 5 mg/kg",,dose-normalized Cmax,401 ± 18.3 ng/mL per mg/kg
CCC[C@H](C(=O)c1ccccc1)N1CCCC1,,"heart rate, telemetry",male Sprague-Dawley rat,"subcutaneous, 3 h session mean",,ED50,9.85 mg/kg
C[C@H]1COc2c(N3CCN(C)CC3)c(F)cc3c(=O)c(C(=O)O)cn1c23,,,THP-1 caseum surrogate,"5 µM, 4 h, 37 °C",,fraction unbound,0.163 ± 0.031
CN[C@@](C)(C[18F])C(=O)O,DU-145 tumour model,,"host not given, heart","15 min, tumour-bearing",,tracer uptake,2.7 %ID/g
NC1(c2ccccc2Cl)CCCCC1=O (racemic),,,"male Wistar rats, plasma","intraperitoneal, 40 mg/kg once daily for 14 days, day 14",,AUC(0-inf),3880 ± 866 ng·h/mL
Oc1ccc2c(c1)[C@@]13CCCC[C@@]1(O)[C@@H](C2)N(CC1CCC1)CC3,,,"Beagle dog, both sexes","intravenous infusion, 0.2 mg/kg loading then 0.2 mg/kg/h, 8 h",,clearance,77.3 mL/min/kg
CN1C(=O)CC(=O)N(c2ccccc2)c2cc(Cl)ccc21,,,"CF-1 mouse, brain","intraperitoneal, 17 mg/kg",,Cmax,5.93 ng/mg
Cc1ncc2n1-c1ccc(Cl)cc1C(c1ccccc1F)=NC2,,,"healthy human volunteers, plasma","oral, 7.5 mg single dose, arithmetic mean, alone",,AUC,96.2 ng·h/mL
CN[C@@H](C)Cc1ccccc1,,,"C57BL/6J mice, male and female","intraperitoneal, 2 h, single dose",,LD50,84.5 mg/kg
CO[C@H]1/C=C/O[C@@]2(C)Oc3c(C)c(O)c4c(O)c(c(/C=N/N5CCN(C)CC5)c(O)c4c3C2=O)NC(=O)/C(C)=C\C=C\[C@H](C)[C@H](O)[C@@H](C)[C@@H](O)[C@@H](C)[C@H](OC(C)=O)[C@@H]1C,,,THP-1 caseum surrogate,"5 µM, 4 h, 37 °C",,fraction unbound,0.073 ± 0.006
COc1ccsc1CNCC[C@@]1(c2ccccn2)CCOC2(CCCC2)C1,,,"healthy human, normal renal function, plasma","intravenous, 1 mg single dose, geometric mean",,AUC(0-t),17.8 ng·h/mL
CN1CC[C@@]23CCCC[C@@H]2[C@@H]1Cc1ccc(O)cc13,,,"Wistar rat, both sexes, plasma","oral, 5 mg/kg DEM, DEM 2 h after pretreatment, added: TCE 400 mg/kg single pretreatment",,Cmax,26.5 ± 14.7 ng/mL
CCCCCCCCCCC(=O)O[C@H]1CC[C@H]2[C@@H]3CCC4=CC(=O)CC[C@]4(C)[C@H]3CC[C@]12C,,,human blood,"300 ng/mL, 60 min, 4 °C, NaF 5 mg/mL, K2 oxalate 4 mg/mL",baseline: no compound added,testosterone change,14.3%
C[C@H]1CNCCc2ccc(Cl)cc21,,,"male Sprague-Dawley rat, plasma","subcutaneous, 3 mg/kg, 0 h, given alone",,plasma concentration,0 ng/mL
C=C1C[C@@H]2[C@H](CC[C@]3(C)C(=O)CC[C@@H]23)[C@@]2(C)C=CC(=O)C=C12,,LC-MS/MS,"postmenopausal breast cancer women, plasma","oral, 25 mg/day, 2 h, CrCl up to 83.0 mL/min",,median plasma concentration,8 ng/mL
N[C@]1(c2ccccc2Cl)CC[C@@H](O)CC1=O,,,"male CD-1 mice, plasma","intraperitoneal, 5 mg/kg",,dose-normalized Cmax,443 ± 20.1 ng/mL per mg/kg
CCCC(C(=O)c1ccc(O)c(O)c1)N1CCCC1 (stereo not shown),,,human plasma,"0.75 µg/L, 24 h, Low QC, room temperature",baseline: freshly fortified plasma,stability,1 % difference
CNC(C)C(=O)c1ccc(C)cc1 (stereo not shown),,,"C57BL/6J mice, male and female","intraperitoneal, 2 h, single dose",,LD50,119 mg/kg
CCN(C(C)=O)c1cccc(-c2ccnc3c(C#N)cnn23)c1,,,"cynomolgus monkey male, hepatic S9","1 µM, pH 7.4, added: without NADPH",,CLint,12.8 ± 1.34 mL/min/kg

# A few entries again:
Compound,target or system,assay,test system,setting,scale,quantity,result
N[C@]1(c2ccccc2Cl)CC[C@@H](O)CC1=O,,,"male CD-1 mice, plasma","intraperitoneal, 5 mg/kg",,dose-normalized Cmax,443 ± 20.1 ng/mL per mg/kg
CCCC(C(=O)c1ccc(O)c(OC)c1)N1CCCC1 (stereo not shown),,,human plasma,"0.75 µg/L, 24 h, Low QC, room temperature",baseline: freshly fortified plasma,stability,14.2 % difference
